Experimental data pooled from the literature.
Protocols differ between the studies behind these lines. ± gives the spread as reported.
CYP2B6: Cytochrome P450 2B6 (CYP2B6, Homo sapiens, UniProt P20813)
Chain of UniProt P20813 (whole entry, looked up): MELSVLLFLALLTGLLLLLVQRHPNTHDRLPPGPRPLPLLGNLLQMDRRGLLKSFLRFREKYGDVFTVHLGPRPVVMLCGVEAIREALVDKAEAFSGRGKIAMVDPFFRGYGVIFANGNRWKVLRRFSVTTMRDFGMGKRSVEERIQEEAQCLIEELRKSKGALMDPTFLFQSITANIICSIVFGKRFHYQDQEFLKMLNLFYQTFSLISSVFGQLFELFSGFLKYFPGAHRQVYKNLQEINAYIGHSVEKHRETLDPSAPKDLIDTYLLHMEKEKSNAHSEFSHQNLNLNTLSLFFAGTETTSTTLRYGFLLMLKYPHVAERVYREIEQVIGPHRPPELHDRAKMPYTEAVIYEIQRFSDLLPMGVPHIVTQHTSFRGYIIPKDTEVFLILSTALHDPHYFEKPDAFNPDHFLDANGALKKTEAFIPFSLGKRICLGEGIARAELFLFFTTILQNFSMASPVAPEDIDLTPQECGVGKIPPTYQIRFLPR
CNR2 I110L: Cannabinoid receptor 2 (CNR2, Homo sapiens, UniProt P34972, I110L)
Chain of UniProt P34972 (whole entry, unmodified, looked up): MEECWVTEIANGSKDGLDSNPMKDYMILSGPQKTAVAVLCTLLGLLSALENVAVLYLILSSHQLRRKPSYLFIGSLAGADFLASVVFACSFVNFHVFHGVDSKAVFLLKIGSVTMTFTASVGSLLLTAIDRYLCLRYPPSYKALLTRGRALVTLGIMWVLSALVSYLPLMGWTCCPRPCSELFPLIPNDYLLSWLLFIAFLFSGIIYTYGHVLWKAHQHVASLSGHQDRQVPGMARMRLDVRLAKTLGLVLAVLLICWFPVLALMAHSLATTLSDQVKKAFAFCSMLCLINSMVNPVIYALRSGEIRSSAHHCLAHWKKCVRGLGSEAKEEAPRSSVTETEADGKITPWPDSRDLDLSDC
Chain of UniProt P9WNC1 (whole entry, looked up): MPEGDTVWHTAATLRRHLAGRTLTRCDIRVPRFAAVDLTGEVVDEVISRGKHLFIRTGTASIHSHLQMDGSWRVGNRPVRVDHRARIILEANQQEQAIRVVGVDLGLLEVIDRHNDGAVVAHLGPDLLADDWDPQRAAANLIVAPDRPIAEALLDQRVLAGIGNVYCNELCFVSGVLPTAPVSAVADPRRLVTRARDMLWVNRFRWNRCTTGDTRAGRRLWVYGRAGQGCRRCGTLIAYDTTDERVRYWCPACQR
Chain of UniProt P40337 (whole entry, looked up): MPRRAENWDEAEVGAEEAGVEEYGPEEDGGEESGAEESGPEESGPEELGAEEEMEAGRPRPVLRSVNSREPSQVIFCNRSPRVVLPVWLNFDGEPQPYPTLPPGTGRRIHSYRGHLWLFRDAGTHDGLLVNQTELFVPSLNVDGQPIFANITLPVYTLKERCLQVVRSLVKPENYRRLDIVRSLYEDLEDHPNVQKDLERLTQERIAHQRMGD
Chain of UniProt P22001 (whole entry, looked up): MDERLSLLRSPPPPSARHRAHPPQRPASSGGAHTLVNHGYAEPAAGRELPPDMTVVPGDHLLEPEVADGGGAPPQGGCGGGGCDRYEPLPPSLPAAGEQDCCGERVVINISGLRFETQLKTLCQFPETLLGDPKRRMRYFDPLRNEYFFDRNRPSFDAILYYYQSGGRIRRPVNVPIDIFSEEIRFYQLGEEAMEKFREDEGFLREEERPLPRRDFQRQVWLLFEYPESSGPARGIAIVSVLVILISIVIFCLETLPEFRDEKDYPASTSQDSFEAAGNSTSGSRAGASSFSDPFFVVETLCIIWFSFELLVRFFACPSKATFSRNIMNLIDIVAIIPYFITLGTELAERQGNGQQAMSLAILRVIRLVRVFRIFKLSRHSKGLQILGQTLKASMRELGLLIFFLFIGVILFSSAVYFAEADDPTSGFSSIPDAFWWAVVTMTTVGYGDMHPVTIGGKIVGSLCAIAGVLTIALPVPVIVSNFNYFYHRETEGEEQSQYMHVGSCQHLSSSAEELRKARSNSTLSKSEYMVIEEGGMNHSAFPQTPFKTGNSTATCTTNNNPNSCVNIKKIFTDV
Chain of UniProt P21554 (whole entry, unmodified, looked up): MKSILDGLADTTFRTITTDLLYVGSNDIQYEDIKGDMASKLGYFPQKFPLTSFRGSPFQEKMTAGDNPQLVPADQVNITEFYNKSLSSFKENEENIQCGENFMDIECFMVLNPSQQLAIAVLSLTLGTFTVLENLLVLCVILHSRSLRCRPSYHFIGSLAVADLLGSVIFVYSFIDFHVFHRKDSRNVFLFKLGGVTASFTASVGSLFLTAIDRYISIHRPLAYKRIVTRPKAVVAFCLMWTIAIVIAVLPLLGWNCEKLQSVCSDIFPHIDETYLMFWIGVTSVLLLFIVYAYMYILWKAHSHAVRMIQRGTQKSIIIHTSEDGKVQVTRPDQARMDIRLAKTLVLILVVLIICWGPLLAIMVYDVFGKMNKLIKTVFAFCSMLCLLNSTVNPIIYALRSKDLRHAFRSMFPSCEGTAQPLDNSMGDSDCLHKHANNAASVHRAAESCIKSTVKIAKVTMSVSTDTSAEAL
Chain of UniProt P30872 (whole entry, looked up): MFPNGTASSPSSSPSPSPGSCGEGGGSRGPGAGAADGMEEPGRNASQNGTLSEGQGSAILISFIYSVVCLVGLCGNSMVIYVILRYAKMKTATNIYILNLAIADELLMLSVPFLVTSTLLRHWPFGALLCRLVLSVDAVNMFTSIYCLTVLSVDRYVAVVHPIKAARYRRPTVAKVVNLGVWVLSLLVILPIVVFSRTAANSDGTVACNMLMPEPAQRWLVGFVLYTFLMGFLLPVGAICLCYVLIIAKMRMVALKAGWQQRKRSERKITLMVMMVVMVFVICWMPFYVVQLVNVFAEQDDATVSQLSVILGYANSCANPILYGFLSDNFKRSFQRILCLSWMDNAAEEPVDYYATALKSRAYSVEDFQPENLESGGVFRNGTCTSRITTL
Chain of UniProt Q01959 (whole entry, looked up): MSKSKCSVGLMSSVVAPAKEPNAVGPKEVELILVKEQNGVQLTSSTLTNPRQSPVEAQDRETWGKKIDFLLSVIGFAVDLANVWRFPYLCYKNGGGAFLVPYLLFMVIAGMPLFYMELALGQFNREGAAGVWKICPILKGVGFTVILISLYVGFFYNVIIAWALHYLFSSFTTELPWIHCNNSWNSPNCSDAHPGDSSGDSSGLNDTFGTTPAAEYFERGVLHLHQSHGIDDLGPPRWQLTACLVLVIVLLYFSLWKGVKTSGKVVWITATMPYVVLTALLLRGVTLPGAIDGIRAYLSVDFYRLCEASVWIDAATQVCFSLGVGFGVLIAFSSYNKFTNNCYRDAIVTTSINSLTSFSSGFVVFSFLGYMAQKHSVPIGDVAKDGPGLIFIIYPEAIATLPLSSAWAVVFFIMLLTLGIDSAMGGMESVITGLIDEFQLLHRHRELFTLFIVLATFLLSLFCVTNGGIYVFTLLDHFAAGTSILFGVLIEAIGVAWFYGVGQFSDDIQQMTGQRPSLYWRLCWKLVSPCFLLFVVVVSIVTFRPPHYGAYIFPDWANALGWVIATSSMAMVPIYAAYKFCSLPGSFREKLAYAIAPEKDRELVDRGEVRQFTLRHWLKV
Chain of UniProt P13128 (whole entry, looked up): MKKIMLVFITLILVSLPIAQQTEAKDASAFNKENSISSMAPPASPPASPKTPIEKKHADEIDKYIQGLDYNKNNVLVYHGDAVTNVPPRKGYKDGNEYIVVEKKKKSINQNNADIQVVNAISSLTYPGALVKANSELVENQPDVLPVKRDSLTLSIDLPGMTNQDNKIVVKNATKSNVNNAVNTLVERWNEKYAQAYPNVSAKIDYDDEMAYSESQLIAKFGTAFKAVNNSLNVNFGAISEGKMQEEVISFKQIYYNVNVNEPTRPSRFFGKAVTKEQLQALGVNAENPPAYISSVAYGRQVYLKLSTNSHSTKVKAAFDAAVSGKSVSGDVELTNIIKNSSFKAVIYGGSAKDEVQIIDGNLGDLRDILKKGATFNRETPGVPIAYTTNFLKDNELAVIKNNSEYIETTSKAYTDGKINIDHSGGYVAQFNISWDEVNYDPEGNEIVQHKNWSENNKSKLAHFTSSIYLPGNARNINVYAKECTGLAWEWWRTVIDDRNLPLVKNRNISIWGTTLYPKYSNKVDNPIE

Compound	target	assay	system	conditions	quantity	value
CCC(CC)O[C@@H]1C=C(C(=O)O)C[C@H](NC(=N)N)[C@H]1NC(C)=O	neuraminidase (Influenza A virus, UniProt C3W6G3)	enzyme kinetics	–	pH 6.15, together with: 500 µM 4-MUNANA	Ki	46 ± 12 nM
CC(=O)NC1C(OC2C(CO)OC(OC3C(CO)OC(O)C(O)C3O)C(O)C2OC2(C(=O)O)CC(O)C(NC(C)=O)C(C(O)C(CO)OC3(C(=O)O)CC(O)C(NC(C)=O)C(C(O)C(CO)OC4(C(=O)O)CC(O)C(NC(C)=O)C(C(O)C(O)CO)O4)O3)O2)OC(CO)C(O)C1O (stereo not drawn)	hly, domain 4 (Listeria monocytogenes, UniProt P13128)	binding	–	–	Kd	10 nM
CSCC[C@@H]1NC(=O)[C@H](CCCNC(=N)N)NC(=O)[C@H](Cc2ccc(O)cc2)NC(=O)[C@@H](NC(=O)[C@H](CCCNC(=N)N)NC(=O)[C@H](CCCCN)NC(=O)[C@H](CC(=O)O)NC(=O)[C@H](C)N)CSSC[C@@H](C(=O)N[C@@H](CCCNC(=N)N)C(=O)N[C@@H](Cc2ccc(O)cc2)C(=O)NCC(=O)O)NC(=O)CNC(=O)[C@H](CCCCN)NC(=O)[C@H](CCCCN)NC(=O)[C@@H]2CSSC[C@H](NC1=O)C(=O)N[C@@H](CCC(N)=O)C(=O)N[C@@H](CCCNC(=N)N)C(=O)N[C@@H](Cc1ccc(O)cc1)C(=O)N[C@@H](Cc1c[nH]cn1)C(=O)N[C@@H](CCC(N)=O)C(=O)N[C@@H](CCCNC(=N)N)C(=O)N[C@@H](CCCNC(=N)N)C(=O)N[C@@H](CCC(N)=O)C(=O)N[C@@H](CCCNC(=N)N)C(=O)N[C@@H](CCCNC(=N)N)C(=O)N[C@@H](CCC(N)=O)C(=O)N2	KCNA3 (Homo sapiens, UniProt P22001)	–	–	–	EC50	70.4 ± 2.9 nM
CCCCCc1cc(O)cc2c1Oc1cc(O)cc(C(=O)CCCC)c1C(=O)O2	Endonuclease 8 2 (nei2, Mycobacterium tuberculosis, UniProt P9WNC1)	binding, surface plasmon resonance	–	GST-tagged wild-type protein	Kd	74 nM
CCCCCc1cc(O)c2c(c1)OC(C)(C)C1CCC(CO)=CC21 (stereo not drawn)	CYP2B6	enzyme activity, inhibitor	human liver microsomes	pH 7.4, unbound, fu,inc corrected, together with: bupropion	Ki	260 ± 41 nM
CCCCCc1cc(O)c2c(c1)OC(C)(C)c1cc(O)c(C)cc1-2	rat intestinal maltase	inhibitor	–	–	Ki'	181000 nM
CC1=CC(C)=[N+]2C1=Cc1ccc(CCC(=O)NCCOCCOCCOCCOCC(=O)N[C@H](C(=O)N3C[C@H](O)C[C@H]3C(=O)NCc3ccc(-c4scnc4C)cc3)C(C)(C)C)n1[B-]2(F)F	von Hippel-Lindau disease tumor suppressor, with elongin B/C (VHL, Homo sapiens, UniProt P40337)	binding, TR-FRET	–	270 min, together with: BODIPY FL VH032	Kd	2.99 nM
CCOC(=O)C=CC(CC1CCNC1=O)NC(=O)C(CC(C)C)NC(=O)C(NC(=O)OCc1ccccc1)C(C)OC(C)(C)C (stereo not drawn)	Replicase polyprotein 1ab, main protease (rep, Human coronavirus NL63, UniProt P0C6X5)	viral replication	–	–	EC50	< 10000 nM
CCCCCn1cc(C(=O)c2ccc3c(c2)CC(C)(C)C3)c2ccccc21	CNR2 I110L	G protein activation, agonist, BRET	–	–	EC50	6920 nM
CSCC[C@H](NC(=O)[C@@H]1CSSC[C@H](NC(=O)[C@H](CCCCN)NC(=O)[C@H](Cc2ccc(O)cc2)NC(=O)CNC(=O)[C@@H](N)CC(C(=O)O)C(=O)O)C(=O)N[C@@H](C(C)C)C(=O)N[C@H](Cc2c[nH]c3ccccc23)C(=O)N[C@@H](CCCCN)C(=O)N[C@@H]([C@@H](C)O)C(=O)N1)C(=O)N1C[C@H](O)C[C@H]1C(=O)N[C@@H](C)C(=O)O	SSTR1 (Homo sapiens, UniProt P30872)	β-arrestin recruitment, agonist	–	–	EC50	2900 nM
CCCCCn1cc(C(=O)c2ccc3ccccc3c2)c2ccccc21	CNR1 (Homo sapiens, UniProt P21554, I267L)	G protein activation, agonist, BRET	–	–	EC50	135 nM
CCCCCc1cc(O)c2c(c1)OC(C)(C)C1CCC(C)=CC21 (single isomer, unassigned; (-))	CYP2B6	inhibitor	HEK293 overexpressing CYP2B6, recombinant microsomes	pH 7.4, total concentration, together with: bupropion	IC50	10000 ± 6400 nM
CCC[C@H](C(=O)c1ccccc1)N1CCCC1	SLC6A3 (Homo sapiens, UniProt Q01959)	transporter uptake, inhibitor, radiometric	–	–	Ki	370 nM
CCCCCn1cc(C(=O)c2cccc3ccccc23)c2ccccc21	CNR2 I110L	G protein activation, agonist, BRET	–	–	EC50	11 nM
CCCCCc1cc(O)c2c(c1)OC(C)(C)C1=C2[C@@H](O)[C@@](C)(O)CC1	rat intestinal maltase	inhibitor	–	–	Ki	216000 nM

For quick reference, copied from above:
Compound	target	assay	system	conditions	quantity	value
CCCCCc1cc(O)c2c(c1)OC(C)(C)C1CCC(C)=CC21 (single isomer, unassigned; (-))	CYP2B6	inhibitor	HEK293 overexpressing CYP2B6, recombinant microsomes	pH 7.4, total concentration, together with: bupropion	IC50	10000 ± 6400 nM
